Assay results gathered from unrelated publications.
Every numbered part comes from another study and shows a few of its results, in no order.

Sample 1
Target: Sal-like protein 4, full length isoform B (SALL4, Homo sapiens, UniProt Q9UJQ4-2, residues 1-616)
Method: universal PBM
Molecule type: double-stranded DNA, one strand shown
Medium: in vitro
Concentration: not given
Notes: 8-mer, flanks averaged, mean of replicates
Reading: higher = stronger binding
Construct (chain): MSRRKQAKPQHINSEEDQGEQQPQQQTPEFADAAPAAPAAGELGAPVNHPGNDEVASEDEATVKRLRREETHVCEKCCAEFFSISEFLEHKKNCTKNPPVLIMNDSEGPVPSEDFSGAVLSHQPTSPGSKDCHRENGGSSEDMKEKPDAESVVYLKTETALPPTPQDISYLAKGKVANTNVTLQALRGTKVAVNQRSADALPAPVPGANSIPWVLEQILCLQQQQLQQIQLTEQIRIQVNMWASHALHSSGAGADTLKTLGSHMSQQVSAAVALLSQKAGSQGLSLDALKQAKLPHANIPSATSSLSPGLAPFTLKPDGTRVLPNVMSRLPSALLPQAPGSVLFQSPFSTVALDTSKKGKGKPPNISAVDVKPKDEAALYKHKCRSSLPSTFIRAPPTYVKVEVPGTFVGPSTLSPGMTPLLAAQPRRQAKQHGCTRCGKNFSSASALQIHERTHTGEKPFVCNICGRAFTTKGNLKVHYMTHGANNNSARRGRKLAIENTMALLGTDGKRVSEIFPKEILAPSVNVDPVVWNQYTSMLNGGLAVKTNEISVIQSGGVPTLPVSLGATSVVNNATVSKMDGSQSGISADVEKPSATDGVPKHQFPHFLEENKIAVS
With `ACGTTAGC` the E-score was 0.0243.
`GACTAAGC` gave an E-score of -0.2.
With `ACTGCCAA` the E-score was -0.0292.
The E-score of `ATATCGAG` is reported as 0.134.
`GGCTAGTA` gave an E-score of 0.0599.
`TCCGGCAA` has an E-score of -0.148.
For `AAGATCAT`, the E-score was 0.228.
For `CAAGGTCC`, the E-score was -0.235.
The E-score of `ATCGTGCC` is reported as -0.0541.
For `GGGAATAA`, the E-score was 0.211.
With `ATGACTTC` the E-score was 0.156.
`CACACGAA` gave an E-score of -0.0317.
With `GTTGCACA` the E-score was -0.0412.
For `GAGGTCTA`, the E-score was -0.102.
`CAGAATCA` gave an E-score of -0.0233.
The E-score of `AGCAGTGG` is reported as -0.29.
`CTACTGAG` gave an E-score of -0.0379.
`AGCGTTTA` gave an E-score of -0.0474.
`ATTCAAGA` has an E-score of 0.222.
With `ATTTGCGG` the E-score was 0.162.
The E-score of `CTGTCTAA` is reported as -0.055.
For `CATTCTGA`, the E-score was 0.0472.
`TTCGAGAA` gave an E-score of 0.0615.
`ACAAGTCT` has an E-score of 0.143.
With `CCATGGCA` the E-score was -0.156.

Sample 2
Target: Histone acetyltransferase KAT6A, winged helix 1, GST fusion (KAT6A, Homo sapiens, UniProt Q92794, residues 1-85)
Method: protein binding microarray
Molecule type: double-stranded DNA, one strand shown
Medium: in vitro
Concentration: not given
Notes: 8-mer, flanks averaged, mean of 2 arrays, mostly near background
Reference: not given
Reading: higher = stronger binding
Target sequence (chain): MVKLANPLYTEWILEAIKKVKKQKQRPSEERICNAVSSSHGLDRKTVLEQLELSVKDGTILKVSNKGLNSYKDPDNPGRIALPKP
`ATCCCCCC` gave an E-score of -0.222.
`ATGAAATG` gave an E-score of -0.272.
`AATTATCA` gave an E-score of -0.105.
`CTCCTAAC` gave an E-score of -0.117.
`CCAGTCTC` gave an E-score of -0.188.
`GTTCTTCA` gave an E-score of -0.0786.
With `ATGCGTTC` the E-score was 0.0847.
With `ACAATTAC` the E-score was -0.162.
For `ATAAATAA`, the E-score was -0.041.
For `TAGGAGGA`, the E-score was -0.144.
`AACCAATC` has an E-score of -0.231.
`TATCCCCA` has an E-score of -0.251.
For `AGAATCTA`, the E-score was -0.139.
For `ATTCCATG`, the E-score was -0.0634.
For `CAACAGCA`, the E-score was -0.0842.
For `AACAGAGT`, the E-score was -0.141.
With `CGGGAAGC` the E-score was 0.325.
The E-score of `CAGGTGGG` is reported as -0.251.
The E-score of `AGTCGTTA` is reported as -0.14.
`CTCGAAGC` has an E-score of -0.00784.
The E-score of `AGTGGTGG` is reported as -0.169.

Sample 3
Target: RNA binding protein fox-1 homolog 2, RRM domain, GST-SBP tag (RBFOX2, Homo sapiens, UniProt O43251-10, residues 100-194)
Method: RNA Bind-n-Seq
Molecule type: RNA
Medium: in vitro
Concentration: 365 nM
Notes: natural RNA segment, single round, ends assumed
Reference: no-protein control
Reading: higher = stronger binding
Residues (chain): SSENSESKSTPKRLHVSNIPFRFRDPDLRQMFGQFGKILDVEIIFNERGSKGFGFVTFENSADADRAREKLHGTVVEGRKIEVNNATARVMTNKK
For `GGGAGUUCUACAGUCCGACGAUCUAUAUAUAUCUCAGGUUUUUAGACUGGUUGACAGAACAAAGCCUGUUUUAACAGUGGAACCUUAAAGAGCACACCUACACCAAACCACCAAAACCACGCCGAGCACAGUGUGGAAUUCUCGGGUGCCAA`, “RBNS enrichment (R)” read 0.386.
Under “RBNS enrichment (R)”, `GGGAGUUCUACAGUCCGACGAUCCCAGUAGACACAAGCAAGAAGACCACACUUCCCCCCGACACAGGAAAGCUGAGACAUUGUCCCCAACUCUUCUUGAUGUAUUUAUUAAUUUAGAGUUUUACCAGCUAUUUUGGAAUUCUCGGGUGCCAA` is recorded as 0.544.
`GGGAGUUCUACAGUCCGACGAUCAGUCACCUUGACAGUUCUUUGCACACAAGUUUUACACCUCUCUGGAUUCGAAGUUUGUAUUGUAUUCAUAGUUAAAGGGAAUCGGGUACUUUGCUUGUUGAAUAAUGCACUGGAAUUCUCGGGUGCCAA` — result for “RBNS enrichment (R)”: 1.43.
`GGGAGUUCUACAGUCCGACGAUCCAGACUCCACACGUGGAAACAAGACUGGGUUUCUCAGCUUCCGUGUCAAGUCAGCCAGAGGAAAGAGGUCGAGUUGACAGCAGCAGGCACUGCCCUUCCUAGUUGGUGGCUGGAAUUCUCGGGUGCCAA` — result for “RBNS enrichment (R)”: 0.494.
For `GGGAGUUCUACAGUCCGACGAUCACUGAGCACACCUUCUGCCAGCACCUACUGAGGGAGACGAAAAGCCCCUGGAAAUUCGUGUGGCCUGUGAAGUGGUGUAUUGUAGUUUGAAUUUGAGACCUAUUGUAAGCUGGAAUUCUCGGGUGCCAA`, “RBNS enrichment (R)” read 0.546.
Under “RBNS enrichment (R)”, `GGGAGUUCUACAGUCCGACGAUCAAGAAAGAUGUUGCUUACUAUGGUGUCAAGGUGACGGAUGAAGCCAGCUGCUCCUAAGGACACAGGGCUGGGUUGGUAAAGAGAAGGCUAUGGUUGACUUCUUGCUUGUGUGGAAUUCUCGGGUGCCAA` is recorded as 1.53.
Under “RBNS enrichment (R)”, `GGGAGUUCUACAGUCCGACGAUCAGCCUCACCCUCUCCACCUUUCAGCCUCCAGAGACUUUGGGGAGGGGGUUAAUCAACCCCGCGUGUUUCUGUUUUAUUGAAAAAGCAGACAUUUUUUUUUAAAUGGUCACUGGAAUUCUCGGGUGCCAA` is recorded as 0.438.
For `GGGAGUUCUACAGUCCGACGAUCACAUGAUGAAACCCCGUCUCUACUACAAAUACAAAAAUUAGCCGGGUGUGGUGGCACACGCCUGUAGUCCCAGCUACUGGGGAGGCUGAGGCAGCAUUGCUUGAACCCAGUGGAAUUCUCGGGUGCCAA`, “RBNS enrichment (R)” read 0.781.
For `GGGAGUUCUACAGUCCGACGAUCCCCUUACUCAAAAUCAGAUAAUUAACAAUGAAGGAAACUCUAAACUCCCCUUAUGGUCUACCAGUAAUUCAUACUUGAGGACCAUGACUGUGGGGAAUGAGGCAUCUUUUUGGAAUUCUCGGGUGCCAA`, “RBNS enrichment (R)” read 0.361.
For `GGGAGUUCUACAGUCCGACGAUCAAAUCUCCCUGUUGACUCAGUGCCUCCUCGGCUUCCUUGGAAGCCCAGAGGGACUAUGAUCUGAUGGCCUCUAGGUGUUGUUUUGUGCAAUAUACAGCCCCAGGUAGGGAUGGAAUUCUCGGGUGCCAA`, “RBNS enrichment (R)” read 0.207.
For `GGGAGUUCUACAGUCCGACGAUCUCCCCAAAUGUAAGGACCCAGGUACACUUUCACCCGUGGAAAGCAGUGUCUGUCGAGAGUCUGUUUCCUAUUAAUACUUAUCAAAGCCAUGUGCGAGGGAGGUGGUCAGCUGGAAUUCUCGGGUGCCAA`, “RBNS enrichment (R)” read 0.27.
For `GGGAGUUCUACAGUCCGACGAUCGUUUGGCUUAAACGUCAAAGCCGUGACAAUUUGUUCUUUGAUGUGAUUGUAUUUCCAAUUUCUUGUUCAUGUAAGAUUUCAAUAAAACUCAAAAAUCUAUUCAAAACAUCUGGAAUUCUCGGGUGCCAA`, “RBNS enrichment (R)” read 0.537.

Sample 4
Target: Prothrombin, mature alpha-thrombin (F2, Homo sapiens, UniProt P00734)
Method: aptamer microarray, sandwich
Molecule type: DNA with 2'F-ANA
Medium: in vitro
Concentration: 200 nM
Notes: whole 15-mer aptamer, many near background
Added: Cy3 exosite-II aptamer, 400 nM
Reading: higher = stronger binding
Strand: GGTTGGTGTGGTTGG
Under “mean fluorescence intensity”, `2'F-ANA at 2 6 7 9 10 11 12 14 15` is recorded as 87.6 a.u.
For `2'F-ANA at 1 2 3 4 7 9 12 13 14 15`, “mean fluorescence intensity” read 73.7 a.u.
`2'F-ANA at 1 3 7 12 13 14`: “mean fluorescence intensity” 132 a.u.
`2'F-ANA at 1 2 3 4 6 8 10 11 12 13` — result for “mean fluorescence intensity”: 70 a.u.
`2'F-ANA at 1 2 4 5 8 9 12 13 14 15` — result for “mean fluorescence intensity”: 52.5 a.u.
For `2'F-ANA at 3 4 6 7 12 14`, “mean fluorescence intensity” read 348 a.u.
For `2'F-ANA at 1 6 7 10 11 12 13 14 15`, “mean fluorescence intensity” read 52.3 a.u.
`2'F-ANA at 1 2 4 6 8 9 10 11 13 14`: “mean fluorescence intensity” 217 a.u.
`2'F-ANA at 1 3 4 6 7 12` — result for “mean fluorescence intensity”: 383 a.u.
For `2'F-ANA at 1 4 5 6 7 8 11 12`, “mean fluorescence intensity” read 93.4 a.u.
`2'F-ANA at 3 4 9 10 11 12 13 14 15` — result for “mean fluorescence intensity”: 181 a.u.
For `2'F-ANA at 1 4 5 6 9 11 12 13 14`, “mean fluorescence intensity” read 54 a.u.
`2'F-ANA at 2 4 9 14`: “mean fluorescence intensity” 102 a.u.
`2'F-ANA at 3 4 5 6 7 8 10 13 14 15`: “mean fluorescence intensity” 47.7 a.u.
Under “mean fluorescence intensity”, `2'F-ANA at 1 2 3 8 10 13` is recorded as 62.4 a.u.
For `2'F-ANA at 3 4 5 7 11 13 15`, “mean fluorescence intensity” read 68.4 a.u.
`2'F-ANA at 2 5 6 8 10 12 13 14` — result for “mean fluorescence intensity”: 42.6 a.u.
For `2'F-ANA at 1 2 3 4 9 10 11`, “mean fluorescence intensity” read 58.3 a.u.
`2'F-ANA at 1 3 6 7 8 9 10 12 13 15` — result for “mean fluorescence intensity”: 215 a.u.
Under “mean fluorescence intensity”, `2'F-ANA at 1 4 5 7 9 10 11 13 15` is recorded as 50.4 a.u.
`2'F-ANA at 3 5 7 8 11 12 13` — result for “mean fluorescence intensity”: 203 a.u.
Under “mean fluorescence intensity”, `2'F-ANA at 1 2 4 5 6 7 9 11 14` is recorded as 200 a.u.
For `2'F-ANA at 1 3 4 10 11 12 13 14 15`, “mean fluorescence intensity” read 58.2 a.u.
`2'F-ANA at 1 2 5 7 12`: “mean fluorescence intensity” 181 a.u.

Repeated from above (sample 4):
`2'F-ANA at 1 2 4 6 8 9 10 11 13 14`: “mean fluorescence intensity” 217 a.u.
`2'F-ANA at 1 3 4 6 7 12` — result for “mean fluorescence intensity”: 383 a.u.
For `2'F-ANA at 1 4 5 6 7 8 11 12`, “mean fluorescence intensity” read 93.4 a.u.
`2'F-ANA at 3 4 9 10 11 12 13 14 15` — result for “mean fluorescence intensity”: 181 a.u.
For `2'F-ANA at 1 4 5 6 9 11 12 13 14`, “mean fluorescence intensity” read 54 a.u.
`2'F-ANA at 2 4 9 14`: “mean fluorescence intensity” 102 a.u.
`2'F-ANA at 3 4 5 6 7 8 10 13 14 15`: “mean fluorescence intensity” 47.7 a.u.
Under “mean fluorescence intensity”, `2'F-ANA at 1 2 3 8 10 13` is recorded as 62.4 a.u.
For `2'F-ANA at 3 4 5 7 11 13 15`, “mean fluorescence intensity” read 68.4 a.u.
`2'F-ANA at 2 5 6 8 10 12 13 14` — result for “mean fluorescence intensity”: 42.6 a.u.
For `2'F-ANA at 1 2 3 4 9 10 11`, “mean fluorescence intensity” read 58.3 a.u.
`2'F-ANA at 1 3 6 7 8 9 10 12 13 15` — result for “mean fluorescence intensity”: 215 a.u.
Under “mean fluorescence intensity”, `2'F-ANA at 1 4 5 7 9 10 11 13 15` is recorded as 50.4 a.u.
